Published values pooled from the literature.
A part holds a random share of what one study measured.
Chain of UniProt O95819 (whole entry, looked up): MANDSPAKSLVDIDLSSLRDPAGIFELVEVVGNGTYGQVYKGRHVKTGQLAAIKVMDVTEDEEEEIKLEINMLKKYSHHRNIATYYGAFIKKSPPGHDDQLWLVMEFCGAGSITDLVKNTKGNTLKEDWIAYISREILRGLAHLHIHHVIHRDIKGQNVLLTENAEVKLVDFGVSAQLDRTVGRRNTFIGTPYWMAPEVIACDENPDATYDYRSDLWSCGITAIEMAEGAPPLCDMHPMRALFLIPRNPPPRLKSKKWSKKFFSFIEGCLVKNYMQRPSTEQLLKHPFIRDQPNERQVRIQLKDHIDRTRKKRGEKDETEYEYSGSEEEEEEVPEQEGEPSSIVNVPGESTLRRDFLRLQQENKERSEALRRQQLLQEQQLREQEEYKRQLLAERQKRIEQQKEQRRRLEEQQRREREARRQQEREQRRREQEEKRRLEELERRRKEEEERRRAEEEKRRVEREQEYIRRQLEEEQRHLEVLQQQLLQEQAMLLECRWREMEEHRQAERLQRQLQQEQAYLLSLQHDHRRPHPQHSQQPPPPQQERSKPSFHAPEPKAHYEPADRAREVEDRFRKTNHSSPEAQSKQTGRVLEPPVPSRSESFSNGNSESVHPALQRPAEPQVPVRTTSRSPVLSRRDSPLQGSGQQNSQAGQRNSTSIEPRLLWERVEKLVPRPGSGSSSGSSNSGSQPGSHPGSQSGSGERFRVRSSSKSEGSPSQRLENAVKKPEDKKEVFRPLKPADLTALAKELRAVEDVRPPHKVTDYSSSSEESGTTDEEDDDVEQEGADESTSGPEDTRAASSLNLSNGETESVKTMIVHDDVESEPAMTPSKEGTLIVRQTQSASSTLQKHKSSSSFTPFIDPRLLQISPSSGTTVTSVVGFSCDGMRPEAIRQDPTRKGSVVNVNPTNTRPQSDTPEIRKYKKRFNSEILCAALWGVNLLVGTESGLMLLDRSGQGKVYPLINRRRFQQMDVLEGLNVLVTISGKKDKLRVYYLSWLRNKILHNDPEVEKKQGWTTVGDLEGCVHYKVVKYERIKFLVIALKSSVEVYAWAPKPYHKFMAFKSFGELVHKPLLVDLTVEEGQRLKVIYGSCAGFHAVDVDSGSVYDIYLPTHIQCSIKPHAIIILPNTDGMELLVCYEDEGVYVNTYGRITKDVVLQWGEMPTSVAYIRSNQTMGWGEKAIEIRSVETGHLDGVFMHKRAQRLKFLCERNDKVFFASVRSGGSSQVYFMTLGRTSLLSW
Chain of UniProt O00238 (whole entry, looked up): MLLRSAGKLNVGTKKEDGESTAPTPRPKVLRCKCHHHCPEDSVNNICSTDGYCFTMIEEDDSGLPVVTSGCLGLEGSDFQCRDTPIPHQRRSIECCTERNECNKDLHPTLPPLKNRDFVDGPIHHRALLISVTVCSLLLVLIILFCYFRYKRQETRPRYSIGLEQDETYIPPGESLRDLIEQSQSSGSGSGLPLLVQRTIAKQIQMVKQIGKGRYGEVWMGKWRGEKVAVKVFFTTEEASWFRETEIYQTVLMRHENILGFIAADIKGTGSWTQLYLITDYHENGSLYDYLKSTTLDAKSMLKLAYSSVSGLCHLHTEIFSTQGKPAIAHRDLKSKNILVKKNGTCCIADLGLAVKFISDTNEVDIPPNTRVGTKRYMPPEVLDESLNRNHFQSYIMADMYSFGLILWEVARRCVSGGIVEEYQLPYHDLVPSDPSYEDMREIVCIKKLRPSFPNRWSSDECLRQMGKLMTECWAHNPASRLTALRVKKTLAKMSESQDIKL
Chain of UniProt Q96GD4 (whole entry, looked up): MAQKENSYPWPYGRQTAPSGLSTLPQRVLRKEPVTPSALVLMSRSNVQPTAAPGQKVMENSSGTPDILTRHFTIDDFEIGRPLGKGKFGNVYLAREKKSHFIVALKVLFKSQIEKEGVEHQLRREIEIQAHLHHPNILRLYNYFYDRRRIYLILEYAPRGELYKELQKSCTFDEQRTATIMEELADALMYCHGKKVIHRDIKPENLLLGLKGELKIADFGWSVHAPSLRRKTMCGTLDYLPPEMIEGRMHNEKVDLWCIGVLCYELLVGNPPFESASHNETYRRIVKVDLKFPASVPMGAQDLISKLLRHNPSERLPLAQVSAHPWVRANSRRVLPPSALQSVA
Chain of UniProt P0C264 (whole entry, looked up): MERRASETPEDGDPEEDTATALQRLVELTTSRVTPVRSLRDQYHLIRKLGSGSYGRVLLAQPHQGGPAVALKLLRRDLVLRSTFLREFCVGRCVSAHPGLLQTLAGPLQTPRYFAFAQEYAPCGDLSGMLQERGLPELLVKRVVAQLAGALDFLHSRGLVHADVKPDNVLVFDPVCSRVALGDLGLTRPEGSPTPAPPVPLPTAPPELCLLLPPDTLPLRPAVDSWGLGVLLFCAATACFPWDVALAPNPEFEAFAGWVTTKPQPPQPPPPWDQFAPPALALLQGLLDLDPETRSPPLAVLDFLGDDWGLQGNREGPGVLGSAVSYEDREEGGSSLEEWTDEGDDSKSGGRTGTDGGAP
Chain of UniProt Q9NY57 (whole entry, looked up): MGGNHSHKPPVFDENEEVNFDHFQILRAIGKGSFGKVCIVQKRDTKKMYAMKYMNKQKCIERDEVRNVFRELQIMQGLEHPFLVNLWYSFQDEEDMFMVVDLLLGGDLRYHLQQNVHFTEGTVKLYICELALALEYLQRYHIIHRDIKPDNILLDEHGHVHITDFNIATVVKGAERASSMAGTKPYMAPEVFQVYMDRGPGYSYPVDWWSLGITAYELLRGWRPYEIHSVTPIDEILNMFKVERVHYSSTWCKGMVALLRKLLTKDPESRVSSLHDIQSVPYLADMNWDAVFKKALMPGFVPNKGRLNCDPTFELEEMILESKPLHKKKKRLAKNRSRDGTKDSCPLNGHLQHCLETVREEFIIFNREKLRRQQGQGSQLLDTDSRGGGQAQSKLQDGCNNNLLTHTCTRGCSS
Chain of UniProt Q99759 (whole entry, looked up): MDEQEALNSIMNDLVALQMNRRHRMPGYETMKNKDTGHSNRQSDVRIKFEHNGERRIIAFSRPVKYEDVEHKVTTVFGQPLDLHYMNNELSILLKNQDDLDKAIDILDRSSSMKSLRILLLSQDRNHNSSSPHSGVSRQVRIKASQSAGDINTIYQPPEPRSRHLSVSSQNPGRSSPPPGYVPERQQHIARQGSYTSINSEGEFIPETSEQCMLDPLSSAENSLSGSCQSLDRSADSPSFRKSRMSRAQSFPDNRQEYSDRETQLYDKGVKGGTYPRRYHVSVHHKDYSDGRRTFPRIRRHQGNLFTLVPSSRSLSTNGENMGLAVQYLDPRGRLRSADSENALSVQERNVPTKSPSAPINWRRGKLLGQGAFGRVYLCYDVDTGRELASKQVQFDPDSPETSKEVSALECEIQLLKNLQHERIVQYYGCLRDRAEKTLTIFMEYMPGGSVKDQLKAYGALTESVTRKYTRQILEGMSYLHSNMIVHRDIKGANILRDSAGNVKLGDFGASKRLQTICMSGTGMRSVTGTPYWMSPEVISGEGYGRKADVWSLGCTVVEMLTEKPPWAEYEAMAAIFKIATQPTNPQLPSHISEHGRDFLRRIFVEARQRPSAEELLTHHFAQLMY

Series 1
SMILES: O=C(Nc1cnn(-c2csc(C(=O)NC3COC3)c2)c1)Nc1ccccc1Cl
Observed: enzyme activity
Tested at: 5 µM
target	mode	baseline	remaining activity [%]
CIT (Homo sapiens, UniProt O14578)	–	untreated control	87.6
Cyclin-dependent kinase 4, with cyclin D1 (CDK4, Homo sapiens, UniProt P11802)	–	untreated control	90.6
DYRK3 (Homo sapiens, UniProt O43781)	–	untreated control	92.6
BMPR1B (Homo sapiens, UniProt O00238)	–	untreated control	108
ERN2 (Homo sapiens, UniProt Q76MJ5)	–	untreated control	100
MAPK7 (Homo sapiens, UniProt Q13164)	–	untreated control	110
ROS1 (Homo sapiens, UniProt P08922)	–	untreated control	102
SBK1 (Homo sapiens, UniProt Q52WX2)	–	untreated control	98.8
Cyclin-dependent kinase 2, with cyclin A1 (CDK2, Homo sapiens, UniProt P24941)	–	untreated control	101
MAP3K5 (Homo sapiens, UniProt Q99683)	–	untreated control	87.1
PHKG2 (Homo sapiens, UniProt P15735)	–	untreated control	98.2
PTK2 (Homo sapiens, UniProt Q05397)	–	untreated control	95.1
TTBK1 (Homo sapiens, UniProt Q5TCY1)	–	untreated control	92.6
MAP2K7 (Homo sapiens, UniProt O14733)	inhibitor	–	112
BLK (Homo sapiens, UniProt P51451)	–	untreated control	77.8
SIK3 (Homo sapiens, UniProt Q9Y2K2)	inhibitor	–	92.4

Series 2
Target: Ephrin type-A receptor 1 (EPHA1, Homo sapiens, UniProt P21709)
Chain of UniProt P21709 (whole entry, looked up): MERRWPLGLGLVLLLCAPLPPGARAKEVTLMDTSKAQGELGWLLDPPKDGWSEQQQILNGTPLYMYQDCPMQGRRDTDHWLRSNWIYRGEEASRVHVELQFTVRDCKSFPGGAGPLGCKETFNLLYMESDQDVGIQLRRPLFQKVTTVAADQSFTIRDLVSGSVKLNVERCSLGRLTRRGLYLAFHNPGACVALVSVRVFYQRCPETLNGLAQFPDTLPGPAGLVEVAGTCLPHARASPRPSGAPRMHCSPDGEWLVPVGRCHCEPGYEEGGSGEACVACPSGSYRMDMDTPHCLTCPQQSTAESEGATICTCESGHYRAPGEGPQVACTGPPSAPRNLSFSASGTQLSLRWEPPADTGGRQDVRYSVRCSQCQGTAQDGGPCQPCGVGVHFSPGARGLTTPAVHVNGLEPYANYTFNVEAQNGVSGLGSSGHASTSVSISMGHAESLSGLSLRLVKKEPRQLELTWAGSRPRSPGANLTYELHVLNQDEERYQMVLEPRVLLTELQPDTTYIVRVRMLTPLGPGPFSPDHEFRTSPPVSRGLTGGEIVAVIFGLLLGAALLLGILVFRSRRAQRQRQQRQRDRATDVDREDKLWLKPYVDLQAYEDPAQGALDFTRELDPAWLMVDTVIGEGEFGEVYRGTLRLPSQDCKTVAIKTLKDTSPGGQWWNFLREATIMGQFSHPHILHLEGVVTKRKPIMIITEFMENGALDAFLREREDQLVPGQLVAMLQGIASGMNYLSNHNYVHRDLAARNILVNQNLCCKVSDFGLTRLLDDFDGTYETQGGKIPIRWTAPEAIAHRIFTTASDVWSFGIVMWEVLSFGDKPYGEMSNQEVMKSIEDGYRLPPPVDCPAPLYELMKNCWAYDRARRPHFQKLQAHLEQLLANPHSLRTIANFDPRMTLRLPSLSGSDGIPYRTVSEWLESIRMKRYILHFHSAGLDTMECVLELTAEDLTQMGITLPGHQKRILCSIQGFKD
Observed: enzyme activity
Mode: inhibitor
Tested at: 0.5 µM
Baseline: control
Compound	remaining activity
CCc1[nH]c(-c2ccc(OC)cc2)nc1-c1ccncc1	116%
Nc1ncnc2c1cnn2-c1ccccc1	92.4%
Oc1ccc(Nc2nc(-c3ccc(Cl)cc3)cs2)cc1	92.6%
Cc1cncc2cccc(S(=O)(=O)N3CCCN(C(=O)CN)C[C@@H]3C)c12	89.2%
CC#CC(=O)Nc1cc2c(Nc3ccc(F)c(Cl)c3)ncnc2cn1	88.3%
N#CC(=C(N)Sc1ccc(N)cc1)c1ccccc1C(F)(F)F	100%
Cc1cc(Nc2nc(-c3ccccc3)nc3ccccc23)n[nH]1	69.9%
Nc1nc(Nc2ccc(S(N)(=O)=O)cc2)nn1C(=O)c1c(F)cccc1F	73.7%
NC(=O)c1ccc(N(C(N)=O)c2c(F)cccc2F)nc1-c1ccc(F)cc1F	99.1%
COc1ccc(S(=O)(=O)N(CCO)c2ccccc2CN(C)CC=Cc2ccc(Cl)cc2)cc1	101%
O=C1NC(=O)C(c2c[nH]c3ccccc23)=C1c1c[nH]c2ccccc12	92.1%
CCCC(=O)Oc1ccc2[nH]c(C(=O)c3cc4ccccc4[nH]3)cc2c1	88.8%
Fc1ccc(-c2nc3n(c2-c2ccncc2)CCS3)cc1	98.2%
O=C1Cc2c([nH]c3ccc([N+](=O)[O-])cc23)-c2ccccc2N1	94.8%
CSc1nc(-c2ccnc(N[C@@H](C)c3ccccc3)c2)c(-c2ccc(F)cc2)[nH]1 (racemic)	89.8%
Cc1ccc(NC2=CC(=O)c3sc(C)nc3C2=O)cc1	86.1%
CC[n+]1c(/C=C/N(C)c2ccccc2)n(-c2ccccc2)c2ccc(-c3nc4ccccc4s3)cc21	77.1%
CC(=O)c1ccc(N2CCOCC2)cc1O	94%
Nc1nccc(-c2c(-c3ccc(F)cc3)ncn2C2CCNCC2)n1	98.2%

Series 3
Target: Calcium/calmodulin-dependent protein kinase type II subunit alpha (CAMK2A, Homo sapiens, UniProt Q9UQM7)
Chain of UniProt Q9UQM7 (whole entry, looked up): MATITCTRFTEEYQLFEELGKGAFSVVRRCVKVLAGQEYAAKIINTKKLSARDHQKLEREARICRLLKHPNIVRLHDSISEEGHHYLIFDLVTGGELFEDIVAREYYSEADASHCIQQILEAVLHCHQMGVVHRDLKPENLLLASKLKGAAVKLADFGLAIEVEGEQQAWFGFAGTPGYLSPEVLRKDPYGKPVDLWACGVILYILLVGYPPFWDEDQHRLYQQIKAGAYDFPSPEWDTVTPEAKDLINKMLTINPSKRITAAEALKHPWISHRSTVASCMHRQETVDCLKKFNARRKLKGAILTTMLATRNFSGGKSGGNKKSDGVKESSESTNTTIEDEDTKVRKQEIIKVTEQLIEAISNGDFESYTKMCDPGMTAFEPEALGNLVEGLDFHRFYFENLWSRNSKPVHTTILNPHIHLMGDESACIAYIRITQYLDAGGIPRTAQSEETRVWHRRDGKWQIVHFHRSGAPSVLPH
Observed: enzyme activity
Mode: inhibitor
Tested at: 10 µM
SMILES	inhibition [%]
COc1ccc(-c2oc3c(CC=C(C)C)c(O)cc(O)c3c(=O)c2O[C@@H]2O[C@@H](C)[C@H](O)[C@@H](O)[C@H]2O[C@@H]2O[C@H](CO)[C@@H](O)[C@H](O)[C@H]2O)cc1	-19
O=C(O)c1ccc(O)c(O)c1O	-20
CC(C)(O)C(=O)O	-26
CCOC(=O)[C@H](CCc1ccccc1)N[C@H]1CS[C@H](c2cccs2)CN(CC(=O)O)C1=O	-14
CC/C=C\C/C=C\C/C=C\CCCCCCCC(=O)NCc1ccccc1	20
O=C(O)CCCC(=O)O	9
NC(=O)C1=CN([C@@H]2O[C@H](COP(=O)(O)OP(=O)(O)OC[C@H]3O[C@@H](n4cnc5c(N)ncnc54)[C@H](O)[C@@H]3O)[C@@H](O)[C@H]2O)C=CC1	30
O=C(O)C1CSSC1	35
CCCCCc1cc(=O)c2ccccc2n1C	-33
CCOc1ccccc1OCCN[C@H](C)Cc1ccc(OC)c(S(N)(=O)=O)c1	-4
C/C(=C(\CCOP(=O)(O)O)SC(=O)c1ccccc1)N(C=O)Cc1cnc(C)nc1N	-5
O=C1CC(c2ccc(O)cc2)Oc2cc(O)cc(O)c21 (racemic)	18
CC(=O)OCC1=CO[C@@H](OC(=O)CC(C)C)[C@H]2C1=C[C@H](OC(=O)CC(C)C)[C@]21CO1	-19
CC(C)C[C@@H](N)C(=O)N[C@H]1C(=O)N[C@@H](CC(N)=O)C(=O)N[C@H]2C(=O)N[C@H]3C(=O)N[C@H](C(=O)N[C@H](C(=O)O)c4cc(O)cc(O)c4-c4cc3ccc4O)[C@H](O)c3ccc(c(Cl)c3)Oc3cc2cc(c3O[C@@H]2O[C@H](CO)[C@@H](O)[C@H](O)[C@H]2O[C@H]2C[C@](C)(N)[C@H](O)[C@H](C)O2)Oc2ccc(cc2Cl)[C@H]1O	2

Series 4
SMILES: C[C@H](c1ccnc(Nc2nc3ccc(-c4cc(N(C)C)ncn4)cc3[nH]2)c1)N1CCN(C(=O)CC(F)(F)F)CC1
Observed: cell-free assay
Method: competition with immobilised ligand
Tested at: 0.1 µM
target	remaining binding [%]
INSRR (Homo sapiens, UniProt P14616)	100
Tyrosine-protein kinase ABL1, phosphorylated (ABL1, Homo sapiens, UniProt P00519, T315I)	89
MAP4K4 (Homo sapiens, UniProt O95819)	91
PRKD3 (Homo sapiens, UniProt O94806)	100
CDK14 (Homo sapiens, UniProt O94921)	100
IKBKB (Homo sapiens, UniProt O14920)	99
Ribosomal protein S6 kinase alpha-4, C-terminal kinase domain (RPS6KA4, Homo sapiens, UniProt O75676)	94
PIK3CG (Homo sapiens, UniProt P48736)	100
SBK3 (Homo sapiens, UniProt P0C264)	100
Tyrosine-protein kinase JAK3, JH1 (JAK3, Homo sapiens, UniProt P52333)	83
CAMK2A (Homo sapiens, UniProt Q9UQM7)	99
KIT (Homo sapiens, UniProt P10721, D816H)	82
RET (Homo sapiens, UniProt P07949, V804M)	76
MAPK12 (Homo sapiens, UniProt P53778)	95
STK32B (Homo sapiens, UniProt Q9NY57)	100
PIP4K2C (Homo sapiens, UniProt Q8TBX8)	96
Tyrosine-protein kinase JAK2, JH1 (JAK2, Homo sapiens, UniProt O60674)	100
MERTK (Homo sapiens, UniProt Q12866)	97
SLK (Homo sapiens, UniProt Q9H2G2)	99
EGFR (Homo sapiens, UniProt P00533)	97
Aurora kinase B (AURKB, Homo sapiens, UniProt Q96GD4)	100
MAP3K3 (Homo sapiens, UniProt Q99759)	100
Tyrosine-protein kinase ABL1, phosphorylated (ABL1, Homo sapiens, UniProt P00519, H396P)	87

Some of these lines once more (series 2):
Compound	remaining activity
Cc1cc(Nc2nc(-c3ccccc3)nc3ccccc23)n[nH]1	69.9%
Nc1nc(Nc2ccc(S(N)(=O)=O)cc2)nn1C(=O)c1c(F)cccc1F	73.7%
NC(=O)c1ccc(N(C(N)=O)c2c(F)cccc2F)nc1-c1ccc(F)cc1F	99.1%
COc1ccc(S(=O)(=O)N(CCO)c2ccccc2CN(C)CC=Cc2ccc(Cl)cc2)cc1	101%
O=C1NC(=O)C(c2c[nH]c3ccccc23)=C1c1c[nH]c2ccccc12	92.1%
CCCC(=O)Oc1ccc2[nH]c(C(=O)c3cc4ccccc4[nH]3)cc2c1	88.8%
Fc1ccc(-c2nc3n(c2-c2ccncc2)CCS3)cc1	98.2%
